# Assay results collected from several papers.
# Every numbered part comes from another study and shows a few of its results, in no order. Positions count from the first letter of the parent shown.

# Study 1
# Target: Interferon regulatory factor 5, full length, phosphomimetic (IRF5, Homo sapiens, UniProt Q13568-2, residues 1-514, K96S/S451D/S453D/S456D/S462D)
# Technique: protein-binding microarray
# Form: double-stranded DNA, one strand shown
# Medium: in vitro
# Tested at: 250 nM
# Setting: 60-bp whole probe
# Together with: salmon DNA 0.4 mg/ml
# Reference: random background probes
# Direction: higher = stronger binding
# Constant ends, left off below: GCCTAGCAC … GTCTTGATTCGCTTGACGCTGCTG
Oligonucleotide,log fluorescence [z-score]
GACGGTTTCGGCCTCGGGACGTGCTAG,6.25
GACGATTTCGGGACTGGAGATGTGCTA,1.9
TTTTTTTTCATCATTGCCTAGTGCTAG,2.09
GACAGACTGGGGTTTCGGGACGTGCTA,1.44
TTAGGTCTCCTTATCCTTAAGTGCTAG,-0.217
TCAGTGCTCATCTGTCATACTGTGCTA,-0.0311
TTAGGTCTCGGTCTCGCTTAGTGCTAG,0.386
GGCTTTGACTCTTTCTGTCAGTGCTAG,1.6
ATAGGTCTCGGACTGGGTTAGTGCTAG,-0.0283
TTAGATTTCAGTGCCGATTAGTGCTAG,1.31
TCAATCATTGTTTTCAGTTTGTGCTAG,2.61
GATGATTTCAGTTTCGAGACGTGCTAG,7.27
TCAATTTTAACCCTTATACTGTGCTAG,0.646
TTAGGTCACGGTCTCGGTTAGTGCTAG,0.117
TCACATCTCCAAAGTCAGACTGTGCTA,0.0735
GACGAATCCAGTTTCGAGACGTGCTAG,5.8
TTAGGTTTCGGTTCCGGTTCGTGCTAG,10.5
TTAGCACTGCTTTTCCTTTAGTGCTAG,0.598
GACGGACTGGGACTGTGGACGTGCTAG,-0.787
GACGATTTCGGGACTGCAGACGTGCTA,1.91
GACGTTATCAGTTTCGAGACGTGCTAG,6.27
TGAGAACTGAGTTTCGATTAGTGCTAG,9.2
GACGGTCTCCTTCCCCTGACGTGCTAG,-0.0767
TTAGGCTTCCTTTTCCTTTAGTGCTAG,0.349

# Study 2
# Target: RNA binding protein fox-1 homolog 2, RRM domain, GST-SBP tag (RBFOX2, Homo sapiens, UniProt O43251-10, residues 100-194)
# Technique: RNA Bind-n-Seq
# Form: RNA
# Medium: in vitro
# Tested at: 365 nM
# Setting: natural RNA segment, single round, ends assumed
# Reference: no-protein control
# Direction: higher = stronger binding
# Constant ends, left off below: GGGAGUUCUACAGUCCGACGAUC … UGGAAUUCUCGGGUGCCAA
# Construct (chain): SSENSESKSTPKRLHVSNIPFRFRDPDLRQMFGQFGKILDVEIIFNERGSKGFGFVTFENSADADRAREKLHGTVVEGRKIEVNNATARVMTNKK
Oligonucleotide,RBNS enrichment (R)
GCUAUCCUUGGCUACACAGUGAAUUUGAGACCAGCUUGGGCUCAUGAGACCCUGUCUCAAGGAAAAAUCAAAAGUUCUUUACAGAUGUGUGCGUGCGGGCGUCAGUUUCC,0.253
AGCUCGGCCCCACCCAGAGGGCCUGGCCAGCUGCUCCCAAGCCACCCAGGGAGGCAGCAGACAGGUGGGAGCUCCUGGGGCACGGCCGUGGGAUUGCUUCCACCAGUGUG,0.241
AUCCCAGAGGGGCCUCAUCAGCAAAGACAGAAACUGAUGUUCCAUGCAUGUCCCUGCUUCCAAAGCCUGACCUUCCAAAGCUUGCUUCCUUCCUCCUGGCUGCACAGACA,2.67
GGUUUUUCCUCUUUGCUCCCUCCAAUCUUGAGAUUGGGUUUUGCUUUAGAGUGCAAGUAUCAUAAUUCCGUAUGAUAGAUGGGGCCUGGACACCCAUCUCAACAGGGUCA,1.05
CCUGCCUGUGUUUCCCUCUUAGGUGCAUUUAUCUUUUUGAUUUUUCCGAGUGGCAUUUAAGUGCACAAAUGAUAACAAGAGGAUUAUUCUCCCGUUCUCAAGGGAGUCAG,0.578
CAAAGCUCCUCUUGGGGAAAUGGCAAGUCUUUAGGAUAGGCAAGACCCUGUAUGAAUAGUACCAAAGCAUUACCGCAUGGUAGAGAACACACUCGAUUAAAAAUGUUAAG,0.647
GCAAGAAUUGGUUGCAAAAAAAUGCUUUAUUUUUGAACAAUGCUUGGAAAUAUUAUGUGACUUUUUUGUUUGUUUGUUUUAGGAGGAUGGUGUAUGGUGGGGGCAAUAAA,4.8
AGGGAUUCUACGUGUAGCCCUGGCUGACCUAGAAUUAGCUCUGAAGACCAGGCUGACCUUGAACUUACAGAGAUCCACCUCCCUGCCUCCCGAGUGCUGGAGCUAAUGGG,0.212
UUUUCCAUUCAGGCACCGAAAUAGUUAAUAUUUGAAAUAAGUCUUCAAAAGAAAACAUAAGAGAUUAUUGAGUUCUUGGGACUGGAUCCUUUAUUUCAUAAGUUCAGAUC,0.562
UUGGGCCACACACCUCUUCUGGGCCUUACUUUGCUCUGCUGUAAGGUGUGGGCAUUUAAGAGGUACCAGAGGGAAAGGAGCCUCCGAAGGACUCGCAGGGGCAGUCGCAG,0.283
UGAUUCUGUUUGUGCAGAUUAAAAACUUUAUAGGGACUUGCAUUAUCGGUUCUCAAUAAAUUACUGAGCAGCUUUGUUUGGGGAGGGAAGUCCCUACCAUCCUUGUUUAG,5.8
GCCGUUUGCAAGGGACUUGCUUUGCACAGUUUUGCUGUACUUUCACAUUUUAUUAUGUAGCAAGAUACAUGGUGAUUUUUUUUUUUUUCAUUUAGCCUGAUUUUCCAACG,0.989

# Study 3
# Target: Sal-like protein 4, full length isoform B (SALL4, Homo sapiens, UniProt Q9UJQ4-2, residues 1-616)
# Technique: universal PBM
# Form: double-stranded DNA, one strand shown
# Medium: in vitro
# Tested at: not given
# Setting: 8-mer, flanks averaged, mean of replicates
# Direction: higher = stronger binding
Oligonucleotide,E-score
AGGGCAAT,-0.067
CGGAACCA,-0.261
GGCTCTGA,-0.108
CAAATCTC,-0.0472
GCTAGTGA,-0.0637
TAGATCTA,0.266
ACCTGAAG,0.00734
AAGCTTCA,-0.0526
CAAGTAAC,0.109
CATGCAAC,0.107
GGGCGGCA,-0.428
CTCCTACC,-0.0841
CGGGTGCC,-0.272
GGTGTTTA,0.0246
CCCCTACG,-0.256
GTTATCAA,0.164
CGTACGCA,-0.126
GATAGGCC,-0.228
AGGACAAA,0.175
GGGATTAA,-0.0134
CAACCGTA,-0.131
ATAGAGAC,0.0878
CCACGCCC,-0.31
CAAAGTGA,-0.0326
CCTTCACC,-0.147

# Study 4
# Target: CCNF, cyclin fold, Cln2 fusion (human)
# Technique: yeast growth competition, sequencing
# Medium: yeast
# Setting: strong parent motif
# Reference: not given
# Direction: higher = stronger binding
# Starting sequence: E2F1 docking peptide (human); PPVKRRLDLETDH
Substitution,normalised enrichment score
PPVFRRLDLETDH [K4F],3.11
PQVKRRLDLETDH [P2Q],6.15
PPVKRRLTLETDH [D8T],4.91
PPVKRRLDLEADH [T11A],6.92
PMVKRRLDLETDH [P2M],3.47
PPVKVRLDLETDH [R5V],-0.179
PPVKRRLDLVTDH [E10V],6.01
PPVKRRFDLETDH [L7F],-0.211
PPVKRRLDLETDK [H13K],7.04
PPQKRRLDLETDH [V3Q],2.51
PPVKRRLDLETDN [H13N],6.12
PPVKRRLDLETFH [D12F],7.9
PPVKRRLDLETNH [D12N],6.63
PPVKRRLDLKTDH [E10K],4.43

# Study 5
# Target: ABI1, truncated, D143A, DHFR fusion (Arabidopsis thaliana)
# Technique: DHFR PCA, deep sequencing
# Medium: yeast
# Setting: methotrexate growth selection, single substitutions
# Together with: (+)-ABA 200 µM
# Reference: wild-type fitted maximum
# Direction: higher = stronger binding
# Starting sequence: PYL1, truncated, DHFR fusion (Arabidopsis thaliana); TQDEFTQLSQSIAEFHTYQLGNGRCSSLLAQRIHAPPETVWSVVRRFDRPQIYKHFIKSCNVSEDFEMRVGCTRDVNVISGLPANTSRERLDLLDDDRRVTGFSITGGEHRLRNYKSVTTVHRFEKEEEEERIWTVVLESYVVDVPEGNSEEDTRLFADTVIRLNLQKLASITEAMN; partner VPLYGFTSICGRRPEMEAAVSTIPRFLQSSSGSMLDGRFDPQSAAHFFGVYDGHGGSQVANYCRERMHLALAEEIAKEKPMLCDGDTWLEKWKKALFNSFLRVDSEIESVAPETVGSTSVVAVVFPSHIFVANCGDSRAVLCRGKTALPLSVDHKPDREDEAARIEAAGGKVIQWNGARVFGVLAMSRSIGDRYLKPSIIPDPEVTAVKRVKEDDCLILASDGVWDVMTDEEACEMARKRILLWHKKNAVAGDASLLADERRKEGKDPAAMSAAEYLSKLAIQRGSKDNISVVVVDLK
Substitution,relative binding score
V137M,19%
E139A,73.3%
F47K,-9.22%
S11E,104%
C72T,99.9%
V142P,-13%
V145T,87.8%
G21H,97.5%
R46S,94.8%
F15L,84.3%
E131N,116%
N149C,61.5%
Q31F,46.5%
D65K,103%
S117Q,73.9%
T106N,69.8%
R49M,94.9%
L28D,-2.17%

# A few entries again (study 5):
Substitution,relative binding score
E139A,73.3%
F47K,-9.22%
S11E,104%
C72T,99.9%
V142P,-13%
V145T,87.8%
G21H,97.5%
R46S,94.8%
F15L,84.3%
E131N,116%
N149C,61.5%
